Measurements gathered from unrelated publications.
Every numbered part comes from another study and shows a few of its results, in no order. Positions count from the first letter of the parent shown.

Sample 1 — technique: DHFR PCA, deep sequencing; sample: yeast; together with: (+)-ABA 0.0091 µM; relative to: wild-type fitted maximum; reading: higher = stronger binding
Target: ABI1, truncated, D143A, DHFR fusion (Arabidopsis thaliana)
Setting: methotrexate growth selection, single substitutions
Starting sequence: PYL1, truncated, DHFR fusion (Arabidopsis thaliana); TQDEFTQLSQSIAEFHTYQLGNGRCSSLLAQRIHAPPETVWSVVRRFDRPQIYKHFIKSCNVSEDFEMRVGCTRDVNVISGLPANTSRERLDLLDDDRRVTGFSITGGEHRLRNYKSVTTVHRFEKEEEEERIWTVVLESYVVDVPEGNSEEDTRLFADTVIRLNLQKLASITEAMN
Change	relative binding score [%]
F15Y	29.6
T1F	16.8
T101N	1.16
D75A	4.29
A30W	11.9
W41D	0.91
R111E	-2.42
E131A	40.6
L28P	0.383
W134C	30.2
D153V	-3.63

Sample 2 — technique: protein-binding microarray; molecule type: double-stranded DNA, one strand shown; sample: in vitro; tested at: 250 nM; setting: 60-bp whole probe; together with: salmon DNA 0.4 mg/ml; relative to: random background probes; reading: higher = stronger binding; shared flanks, not repeated: GCCTAGCAC … GTCTTGATTCGCTTGACGCTGCTG
Target: Interferon regulatory factor 7, full length, phosphomimetic (IRF7, Homo sapiens, UniProt Q92985, residues 1-503, S101K/S471D/S472D/S475D/S476D/S477D/S483D/S484D/S487D)
Residues (chain): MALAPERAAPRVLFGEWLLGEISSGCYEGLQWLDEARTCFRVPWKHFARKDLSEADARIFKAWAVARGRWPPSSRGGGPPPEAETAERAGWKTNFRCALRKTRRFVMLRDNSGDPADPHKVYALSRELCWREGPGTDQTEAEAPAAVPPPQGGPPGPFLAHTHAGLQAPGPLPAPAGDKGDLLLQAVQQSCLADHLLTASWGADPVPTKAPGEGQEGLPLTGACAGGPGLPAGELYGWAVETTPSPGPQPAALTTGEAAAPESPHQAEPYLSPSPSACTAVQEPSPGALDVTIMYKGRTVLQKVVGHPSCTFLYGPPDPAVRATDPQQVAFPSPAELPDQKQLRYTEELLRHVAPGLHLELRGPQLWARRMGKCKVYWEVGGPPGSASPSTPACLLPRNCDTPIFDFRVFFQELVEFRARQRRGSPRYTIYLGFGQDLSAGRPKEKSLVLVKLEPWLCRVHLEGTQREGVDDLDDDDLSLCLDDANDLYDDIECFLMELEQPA
Strand	log fluorescence [z-score]
GACGATTTCAGACTGGAGCCGTGCTAG	-0.14
GACGGTCTCGCTTTCGGGACGTGCTAG	4.21
TTAGGTTACCTTTTCCTTTAGTGCTAG	1.57
GGGCGGGTGCCAACTCTTAGGTGCTAG	-1.48
TTAGGTATCGAACTGGGTTAGTGCTAG	0.0353
TTATATCTGTGTTATTAAATTGTGCTA	0.923
GACGGACTGGGGTTCGGGACGTGCTAG	-0.388
GGCTTTTTTTTTTTTTTTTTGTGCTAG	0.168
GACGGTTCCCTTTTCCTAACGTGCTAG	3.5
TTGGGACTGGGGTATCGGTTAGTGCTA	-0.0661
TTAGGTTTCGACTATCTGTTAGTGCTA	5.22
TTAGGTATCCTACTGCTTTGGTGCTAG	0.07
GACGAACTGGGGACTGGAGGCGTGCTA	-0.738
GTAGGTATCCTACTGCTTTAGTGCTAG	-0.275
TGCGGTTCAGATATAGGATAGTGCTAG	-0.373
TTAGGTATCGGGACTGGGTTTGTGCTA	0.188
ACCATTCTCGGGACTCACCTGGTGCTA	0.989

Sample 3 — technique: DNA-protein interaction ELISA; molecule type: double-stranded DNA, one strand shown; sample: in vitro, bacterial lysate; tested at: not given; setting: whole dsDNA probe, crude lysate protein; relative to: highest signal in screen; reading: higher = stronger binding
Target: Probable WRKY transcription factor 33, N-terminal DNA-binding domain (WRKY33, Arabidopsis thaliana, UniProt Q8S8P5, residues 169-264)
Residues (chain): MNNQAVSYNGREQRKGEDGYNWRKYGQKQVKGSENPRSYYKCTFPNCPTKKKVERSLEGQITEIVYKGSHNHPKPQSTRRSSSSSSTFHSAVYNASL
Strand	relative absorbance
AAAAAACGGAAGATCGTGACTGCTAGAAAA	19.6 % of maximum
AAAAAACCACCCAGTCTGTTTCTACTAAAA	22.7 % of maximum
AAAAAACGTATTGATGTCTATTTCAAAAAA	30.8 % of maximum
AAAAAATGGTCGATCCGCATGCAGTTAAAA	26.2 % of maximum
AAAAAAACTTCTGTCCCTGTTCCCGTAAAA	18.9 % of maximum
AAAAAAACGGGTTGTGAATGTGGAAGAAAA	19.4 % of maximum
AAAAAATTCGTTTTTCGTCTTTCATTAAAA	28.4 % of maximum
AAAAAACATGTCGCACCTGTACTAACAAAA	25.7 % of maximum
AAAAAATCCATGTTTAAGCTGGTCTCAAAA	28.1 % of maximum
AAAAAATCCGTTCCCATTTGTCCGTCAAAA	21.2 % of maximum
AAAAAAACGCTATATATTGGTGCTAGAAAA	23.2 % of maximum
AAAAAAAATTAGTCTCTTCGTCTCCCAAAA	21.6 % of maximum
AAAAAATACTGGCTGTCTCGTTCACAAAAA	31.6 % of maximum
AAAAAATTTTGTTTTTGCTTTTCCTTAAAA	27.8 % of maximum
AAAAAATGTGCCCGTGTGTGCTCGCGAAAA	20 % of maximum
AAAAAACTACGTATATTCAGGCCCTAAAAA	19.7 % of maximum
AAAAAAGTACGGATGCCCGCGCGTATAAAA	11 % of maximum
AAAAAATTCTAGCTTTTAACTTTAGCAAAA	25.1 % of maximum
AAAAAATAAATCGCGGCTACTGCTTCAAAA	20 % of maximum

Sample 4 — technique: Sort-seq; refers to: YFP reporter; sample: E. coli; setting: PhoQ-PhoP variant library; together with: 10 µM Mg2+; relative to: high Mg2+ state; reading: higher = stronger signaling
Molecule: PhoQ, residues 284 288 289 292 302 303 AEGLLW
target	fold induction
PhoP, residues 12 14 15 18 19 NFFVT (Escherichia coli, UniProt P23836)	13
PhoP, residues 12 14 15 18 19 LHHYF (Escherichia coli, UniProt P23836)	5.24
PhoP, residues 12 14 15 18 19 TPWTL (Escherichia coli, UniProt P23836)	1.26
PhoP, residues 12 14 15 18 19 VGHWL (Escherichia coli, UniProt P23836)	10.5

Some of these lines once more (sample 2):
Strand	log fluorescence [z-score]
TTATATCTGTGTTATTAAATTGTGCTA	0.923
GACGGACTGGGGTTCGGGACGTGCTAG	-0.388
GGCTTTTTTTTTTTTTTTTTGTGCTAG	0.168
GACGGTTCCCTTTTCCTAACGTGCTAG	3.5
TTGGGACTGGGGTATCGGTTAGTGCTA	-0.0661
TTAGGTTTCGACTATCTGTTAGTGCTA	5.22
TTAGGTATCCTACTGCTTTGGTGCTAG	0.07
GACGAACTGGGGACTGGAGGCGTGCTA	-0.738
